Results from different studies.
A part holds a random share of what one study measured. Changes are numbered by the printed parent chain.

Block 1 — method: universal PBM; form: double-stranded DNA, one strand shown; matrix: in vitro; concentration: 600 nM; direction: higher = stronger binding
Target: Sal-like protein 4, full length isoform A (SALL4, Homo sapiens, UniProt Q9UJQ4, residues 1-1053)
Sequence of UniProt Q9UJQ4 (whole entry, looked up): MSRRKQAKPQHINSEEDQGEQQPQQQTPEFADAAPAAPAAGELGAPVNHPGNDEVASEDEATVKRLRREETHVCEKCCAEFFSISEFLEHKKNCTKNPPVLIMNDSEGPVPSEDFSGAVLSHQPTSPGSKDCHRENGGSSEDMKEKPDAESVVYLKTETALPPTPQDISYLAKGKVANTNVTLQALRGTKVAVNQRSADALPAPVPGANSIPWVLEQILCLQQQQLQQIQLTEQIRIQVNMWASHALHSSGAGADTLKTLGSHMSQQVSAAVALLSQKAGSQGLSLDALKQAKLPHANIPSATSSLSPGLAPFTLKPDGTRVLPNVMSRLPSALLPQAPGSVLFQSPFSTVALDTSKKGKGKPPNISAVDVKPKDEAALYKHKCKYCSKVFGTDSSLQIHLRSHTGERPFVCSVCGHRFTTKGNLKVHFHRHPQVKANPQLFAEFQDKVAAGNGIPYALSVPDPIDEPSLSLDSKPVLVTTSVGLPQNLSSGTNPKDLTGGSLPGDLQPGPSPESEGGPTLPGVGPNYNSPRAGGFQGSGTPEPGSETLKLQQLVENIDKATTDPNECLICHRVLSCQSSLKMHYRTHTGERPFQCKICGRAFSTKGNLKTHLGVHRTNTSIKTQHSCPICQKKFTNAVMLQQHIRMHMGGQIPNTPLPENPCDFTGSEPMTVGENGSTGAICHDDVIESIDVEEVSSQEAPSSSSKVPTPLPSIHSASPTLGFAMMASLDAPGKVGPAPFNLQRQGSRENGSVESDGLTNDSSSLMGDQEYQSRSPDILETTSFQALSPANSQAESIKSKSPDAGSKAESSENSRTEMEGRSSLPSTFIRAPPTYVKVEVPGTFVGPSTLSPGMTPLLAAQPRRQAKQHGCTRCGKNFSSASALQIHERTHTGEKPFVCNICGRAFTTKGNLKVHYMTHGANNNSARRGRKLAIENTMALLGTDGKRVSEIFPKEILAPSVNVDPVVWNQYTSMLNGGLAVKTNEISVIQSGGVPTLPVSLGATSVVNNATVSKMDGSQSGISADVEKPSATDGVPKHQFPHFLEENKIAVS
Notes: 8-mer, flanks averaged, mean of replicates
Strand | E-score
CCCAGACG | -0.296
CTCCCTAA | -0.0458
CAAATTGC | 0.144
CACCATTC | -0.00408
CCAGGGTC | -0.369
AGTTACAC | 0.165
CCAGCCGG | -0.313
CCATATTA | 0.368
GTACCGGA | -0.193
AATCCACA | 0.178
GGTTTAAC | 0.0708
AGACTAGG | -0.00215
GGGCATCA | -0.235
AACCGACA | 0.0486
CGTCTACA | -0.119
GATCGATA | 0.247
AAGAACTA | 0.156
ACTGAATA | 0.298
CAGGGCGA | -0.27
ACAAAGCT | 0.0616
AACTTTTG | 0.186
AACTGTAC | 0.0631
GAACTTCA | 0.077
AAAAGCTC | -0.0745

Block 2 — target: CCNE1, cyclin fold, Cln2 fusion (human); method: yeast growth competition, sequencing; matrix: yeast; notes: strong parent motif; baseline: not given; direction: higher = stronger binding
Starting sequence: INSM1 docking peptide (human); PKAIRKLHFEDEV; partner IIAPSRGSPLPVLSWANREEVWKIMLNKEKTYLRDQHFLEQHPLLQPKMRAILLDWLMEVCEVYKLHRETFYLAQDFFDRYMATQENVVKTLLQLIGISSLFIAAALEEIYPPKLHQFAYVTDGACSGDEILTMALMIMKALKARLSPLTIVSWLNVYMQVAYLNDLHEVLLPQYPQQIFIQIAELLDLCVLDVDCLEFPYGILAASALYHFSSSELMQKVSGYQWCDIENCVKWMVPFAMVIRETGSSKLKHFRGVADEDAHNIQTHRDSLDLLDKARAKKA
Substitution | normalised enrichment score
PVAIRKLHFEDEV [K2V] | 2.97
PKAERKLHFEDEV [I4E] | 0.627
PKASRKLHFEDEV [I4S] | 1.97
PKAIRKLHFFDEV [E10F] | 2.89
PKAIRKLHWEDEV [F9W] | 0.905
PKAIRKLVFEDEV [H8V] | 5.49
PKAIRKLHFELEV [D11L] | 3.3
PKAIRILHFEDEV [K6I] | 3.2
PKAIRKGHFEDEV [L7G] | 0.043
PFAIRKLHFEDEV [K2F] | 4
PKAIRKLHFEDDV [E12D] | 4.79
PKPIRKLHFEDEV [A3P] | 1.85
PKAISKLHFEDEV [R5S] | 0.106
PTAIRKLHFEDEV [K2T] | 4.84
PKAIRKLHFEDVV [E12V] | 3.86
PPAIRKLHFEDEV [K2P] | 3.91
PKAIRKLDFEDEV [H8D] | 4.61
PKAIDKLHFEDEV [R5D] | 0.151
PKAVRKLHFEDEV [I4V] | 5.58
PKAIRKLHFEDCV [E12C] | 4.57
PKAIRKLHFEREV [D11R] | 1.47
PKCIRKLHFEDEV [A3C] | 4.75
PKAIRKLTFEDEV [H8T] | 5.52
PKMIRKLHFEDEV [A3M] | 1.09
PKAIRKLHFHDEV [E10H] | 2.59

Block 3 — method: RNA Bind-n-Seq; form: RNA; matrix: in vitro; concentration: 365 nM; baseline: no-protein control; direction: higher = stronger binding
Target: RNA binding protein fox-1 homolog 2, RRM domain, GST-SBP tag (RBFOX2, Homo sapiens, UniProt O43251-10, residues 100-194)
Notes: natural RNA segment, single round, ends assumed
Residues (chain): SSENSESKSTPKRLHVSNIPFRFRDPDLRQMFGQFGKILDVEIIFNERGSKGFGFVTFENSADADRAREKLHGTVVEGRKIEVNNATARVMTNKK
Strand | RBNS enrichment (R)
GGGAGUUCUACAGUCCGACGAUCGUUUGGCGUGAUGUCACGUGUGGCCAGACUGGCGACCGUACACUAGGUUUUUGAUCUUGCACUUUGCGAUGCAAAUUAUCUGUGUGGAGGGGAAGCGAAUGUUUCUGAACUGGAAUUCUCGGGUGCCAA | 0.311
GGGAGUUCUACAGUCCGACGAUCGACCAAGGACAUCAUGCUCUGUAUUUGACAGUAAAGUUUUACCUUAAAAAUGAGACCCCCAACUACCUAAAGCACCCAUCUUUGUAACUAGACCAUAACUAUACUGCUUUUGGAAUUCUCGGGUGCCAA | 0.339
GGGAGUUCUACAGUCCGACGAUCGUACCACCCACACAGCACAGCUCUUCAUUCACAGUCAAGAGUUUAGACUGCUCCAGCUGGGACAUCCAGUCCUCGCUGCUGUUGCUGCUAGUUCGAAGGAUGCCGCCGUGUGGAAUUCUCGGGUGCCAA | 0.23
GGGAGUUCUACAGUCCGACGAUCAAUUUGCUCUGAAAAGAAGCACAGUUGGGUAGACGAGGCCCGUGGAUGUCAUUUUUUUUUUUCUGGGCAGAAGACAGUAUGGGGACCCAAGAAGUUCCCAUCAAAGACCAUGGAAUUCUCGGGUGCCAA | 0.32
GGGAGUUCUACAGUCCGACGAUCAAGAUGUGUAUAUCGACACUAGGUCAGAAAGUGUAUGCGUUAUAAUAAAGUUCUGGUUCUAACUCCAGCCUGAGUGGGGUCCAUUCUGUCAUGUUUGUUGGGUACGGGUUUGGAAUUCUCGGGUGCCAA | 2.28
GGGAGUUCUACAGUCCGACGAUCGGUUGGAGGGGCCUCCCUCUGGCUUCUGCAUCUGCGCCAGCAAACAUCACUGCCGUUGGUCUCUCAUGACUUAACUGGCUUCCCUCUGCUGCUGCCUUGGCUUCCUCCUAUGGAAUUCUCGGGUGCCAA | 0.962
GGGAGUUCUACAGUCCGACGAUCCUGUAAACACAGGGUCCGCUGAUCAAGUCCUUCUUGCUCAUUGCAGUUUGAUUUGCCAGCAGUCAUACUGAGACUAGCUUGAUCCUACACCUGUUAGACAGUGGCAGAGAUGGAAUUCUCGGGUGCCAA | 0.671
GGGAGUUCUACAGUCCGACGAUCCUGGGCAGGAAGAGUCCUCAGUCCCAAGACCAGGAGGGGGCAAUGGGCCCAGCCUUUCUGUGGUAUCUGAUGCAGGAAGGACUGCAGUGGAUCAGAACUUACAAACCAAAUGGAAUUCUCGGGUGCCAA | 0.509
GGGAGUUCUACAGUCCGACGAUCACAUGACAAGAACAAACCCGGUUUUAAGGGUUGAAUGUAGGGGGAUACCAUUCUGUCUUUUAGACUUUCAACAUCUGCUAUGGUGGAGCACAAAUGUUAUUUAAAAGCAUUGGAAUUCUCGGGUGCCAA | 1.88
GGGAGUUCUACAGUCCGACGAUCACUCAUUCCUUGUGUGUGUCUUGGAGUGCAUUUGACUCCAGGAAAAGCCAUUUUGGUUUUCCUUAACUAAAUGAUAAAUGUACCCCUCUCAGUCUGCAGUAUUGAGUUGUUGGAAUUCUCGGGUGCCAA | 0.391
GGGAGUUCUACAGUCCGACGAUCAUGCUGACUGACAGGCAGAUCCUGAUAUAUCCAAAUUCGAAUUAAUACCAUUUGAAAUGGCAAGUCUUGGCUUAACGCCUGUUUGUAUGCCCAGCAUUCAGCUGUUUUACUGGAAUUCUCGGGUGCCAA | 0.448
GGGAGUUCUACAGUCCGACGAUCUCCUGGGGUUGGUAUGUAGGAGGUCUAUCCUGCAGAAUAAGUUGAUACAUUAGUACCUGAUUUCAUAUCUUACAUAUUUAUUUGAGCUGAACAUUAGUUUGUAGUGUAACUGGAAUUCUCGGGUGCCAA | 0.519

Block 4 — method: DHFR PCA, deep sequencing; matrix: yeast; with: (+)-ABA 710 µM; baseline: wild-type fitted maximum; direction: higher = stronger binding
Target: ABI1, truncated, D143A, DHFR fusion (Arabidopsis thaliana)
Notes: methotrexate growth selection, single substitutions
Starting sequence: PYL1, truncated, DHFR fusion (Arabidopsis thaliana); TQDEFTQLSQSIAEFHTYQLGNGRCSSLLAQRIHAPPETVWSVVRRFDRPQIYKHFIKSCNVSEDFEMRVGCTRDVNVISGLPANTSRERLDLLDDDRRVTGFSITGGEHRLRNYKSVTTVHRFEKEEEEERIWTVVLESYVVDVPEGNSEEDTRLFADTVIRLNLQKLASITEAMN
Substitution | relative binding score [%]
E4Y | 98.7
F15P | 40.6
M68I | 103
R98T | 107
R123K | 113
A13I | 97.2
E174D | 95.2
Q10C | 105
D48C | 74
F47M | 1.54
E127C | 104
S63A | 106
I33G | 4.25
D95G | 35.9
D97R | 106
R88N | 103
L156K | 91
S104R | 82.8
E38S | 98
C72E | 99.9
V40F | -53.3
V44W | -14.8
D3Y | 100
P36M | 93.8
R46P | 63.7

Block 5 — method: aptamer microarray, sandwich; form: DNA with 2'F-ANA; matrix: in vitro; concentration: 200 nM; with: Cy3 exosite-II aptamer, 400 nM; direction: higher = stronger binding; strand: GGTTGGTGTGGTTGG
Target: Prothrombin, mature alpha-thrombin (F2, Homo sapiens, UniProt P00734)
Notes: whole 15-mer aptamer, many near background
Modification | mean fluorescence intensity
2'F-ANA at 1 3 5 6 11 12 13 14 15 | 49.9 a.u.
2'F-ANA at 4 7 9 11 12 13 14 | 109 a.u.
2'F-ANA at 1 2 5 6 11 12 14 | 91.5 a.u.
2'F-ANA at 2 5 11 | 60.7 a.u.
2'F-ANA at 2 15 | 466 a.u.
2'F-ANA at 2 6 7 11 12 13 | 449 a.u.
2'F-ANA at 2 4 5 6 9 12 13 | 83 a.u.
2'F-ANA at 1 2 4 6 8 10 14 15 | 47.1 a.u.
2'F-ANA at 3 7 10 14 15 | 537 a.u.
2'F-ANA at 1 3 4 5 6 7 9 11 12 14 | 114 a.u.
2'F-ANA at 1 3 7 8 11 15 | 323 a.u.
2'F-ANA at 2 4 5 6 10 14 15 | 54.7 a.u.
2'F-ANA at 1 4 5 7 11 12 14 15 | 45.7 a.u.
2'F-ANA at 1 2 6 7 11 12 13 | 176 a.u.
2'F-ANA at 2 3 4 5 7 8 9 10 11 12 13 14 15 | 95.8 a.u.
2'F-ANA at 4 5 9 10 11 13 15 | 46.1 a.u.
2'F-ANA at 1 3 6 8 9 10 11 12 13 | 106 a.u.
2'F-ANA at 1 4 5 10 14 | 115 a.u.

Block 6 — method: protein binding microarray; form: double-stranded DNA, one strand shown; matrix: in vitro; concentration: not given; baseline: not given; direction: higher = stronger binding
Target: Histone acetyltransferase KAT6A, winged helix 1, GST fusion (KAT6A, Homo sapiens, UniProt Q92794, residues 1-85)
Notes: 8-mer, flanks averaged, mean of 2 arrays, mostly near background
Residues (chain): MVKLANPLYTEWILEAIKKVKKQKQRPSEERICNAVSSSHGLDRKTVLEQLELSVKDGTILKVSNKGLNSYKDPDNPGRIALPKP
Strand | E-score
CTCTTAAC | -0.127
ACAAACCC | -0.0474
ATGTATAG | -0.138
AGCTATGC | 0.053
AGTCCTTC | -0.129
GTAACTTA | -0.139
GGAACCTA | 0.0632
TATGGGGA | -0.0448
GCCCCGCC | 0.325
AGATATAT | -0.0979
CTGCCACA | -0.129
CCAGTTAA | -0.187
AAATGGCG | 0.191
AACATGGC | -0.0554
TATAGTAA | 0.0286
GTACCTCA | -0.182
CAGGCTGC | -0.151
AAAGCTTG | -0.191

For quick reference, copied from above (block 2):
Substitution | normalised enrichment score
PKAERKLHFEDEV [I4E] | 0.627
PKAIRKLHWEDEV [F9W] | 0.905
PKCIRKLHFEDEV [A3C] | 4.75
PTAIRKLHFEDEV [K2T] | 4.84
PKAVRKLHFEDEV [I4V] | 5.58
PKAIRKLTFEDEV [H8T] | 5.52
PKMIRKLHFEDEV [A3M] | 1.09
PKAIDKLHFEDEV [R5D] | 0.151
PKAIRKLVFEDEV [H8V] | 5.49
PKAISKLHFEDEV [R5S] | 0.106
PKAIRKLHFHDEV [E10H] | 2.59
